Measured values collected from several papers.
Every numbered part comes from another study and shows a few of its results, in no order.
Sequence of UniProt Q99683 (whole entry, looked up): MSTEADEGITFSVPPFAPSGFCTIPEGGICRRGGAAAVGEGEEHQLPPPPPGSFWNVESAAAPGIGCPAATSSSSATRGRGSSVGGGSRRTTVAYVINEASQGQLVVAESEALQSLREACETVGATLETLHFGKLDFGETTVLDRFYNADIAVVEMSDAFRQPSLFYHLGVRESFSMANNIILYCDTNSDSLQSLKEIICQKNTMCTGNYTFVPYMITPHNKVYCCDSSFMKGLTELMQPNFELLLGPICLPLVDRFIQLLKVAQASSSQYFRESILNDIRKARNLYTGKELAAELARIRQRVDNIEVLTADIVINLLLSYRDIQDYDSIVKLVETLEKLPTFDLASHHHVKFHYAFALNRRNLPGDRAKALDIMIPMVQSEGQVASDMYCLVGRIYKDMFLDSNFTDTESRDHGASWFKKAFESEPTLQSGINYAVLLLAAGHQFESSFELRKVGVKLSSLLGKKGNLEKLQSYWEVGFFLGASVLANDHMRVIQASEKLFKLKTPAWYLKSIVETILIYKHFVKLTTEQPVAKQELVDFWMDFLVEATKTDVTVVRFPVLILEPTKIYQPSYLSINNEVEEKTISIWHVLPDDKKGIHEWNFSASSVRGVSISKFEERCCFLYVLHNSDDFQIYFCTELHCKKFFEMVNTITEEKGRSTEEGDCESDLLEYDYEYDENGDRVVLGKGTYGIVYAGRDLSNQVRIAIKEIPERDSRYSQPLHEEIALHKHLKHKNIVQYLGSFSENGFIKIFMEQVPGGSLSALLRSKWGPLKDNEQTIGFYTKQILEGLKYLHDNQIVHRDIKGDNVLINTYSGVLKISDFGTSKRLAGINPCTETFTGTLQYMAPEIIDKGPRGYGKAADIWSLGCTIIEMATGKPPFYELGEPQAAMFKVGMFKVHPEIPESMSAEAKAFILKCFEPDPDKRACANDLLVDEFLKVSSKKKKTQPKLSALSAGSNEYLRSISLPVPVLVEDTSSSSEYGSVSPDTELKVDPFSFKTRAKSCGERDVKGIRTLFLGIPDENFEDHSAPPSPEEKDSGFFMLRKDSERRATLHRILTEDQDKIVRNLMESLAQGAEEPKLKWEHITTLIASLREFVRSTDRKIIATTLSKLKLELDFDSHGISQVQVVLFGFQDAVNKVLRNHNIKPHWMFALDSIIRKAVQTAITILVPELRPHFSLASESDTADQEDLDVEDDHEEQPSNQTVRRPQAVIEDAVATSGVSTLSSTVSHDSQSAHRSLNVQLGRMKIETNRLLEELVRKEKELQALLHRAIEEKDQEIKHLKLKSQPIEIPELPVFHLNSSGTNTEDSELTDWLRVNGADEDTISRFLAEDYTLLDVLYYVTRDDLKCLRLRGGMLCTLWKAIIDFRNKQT
Sequence of UniProt P52333 (whole entry, looked up): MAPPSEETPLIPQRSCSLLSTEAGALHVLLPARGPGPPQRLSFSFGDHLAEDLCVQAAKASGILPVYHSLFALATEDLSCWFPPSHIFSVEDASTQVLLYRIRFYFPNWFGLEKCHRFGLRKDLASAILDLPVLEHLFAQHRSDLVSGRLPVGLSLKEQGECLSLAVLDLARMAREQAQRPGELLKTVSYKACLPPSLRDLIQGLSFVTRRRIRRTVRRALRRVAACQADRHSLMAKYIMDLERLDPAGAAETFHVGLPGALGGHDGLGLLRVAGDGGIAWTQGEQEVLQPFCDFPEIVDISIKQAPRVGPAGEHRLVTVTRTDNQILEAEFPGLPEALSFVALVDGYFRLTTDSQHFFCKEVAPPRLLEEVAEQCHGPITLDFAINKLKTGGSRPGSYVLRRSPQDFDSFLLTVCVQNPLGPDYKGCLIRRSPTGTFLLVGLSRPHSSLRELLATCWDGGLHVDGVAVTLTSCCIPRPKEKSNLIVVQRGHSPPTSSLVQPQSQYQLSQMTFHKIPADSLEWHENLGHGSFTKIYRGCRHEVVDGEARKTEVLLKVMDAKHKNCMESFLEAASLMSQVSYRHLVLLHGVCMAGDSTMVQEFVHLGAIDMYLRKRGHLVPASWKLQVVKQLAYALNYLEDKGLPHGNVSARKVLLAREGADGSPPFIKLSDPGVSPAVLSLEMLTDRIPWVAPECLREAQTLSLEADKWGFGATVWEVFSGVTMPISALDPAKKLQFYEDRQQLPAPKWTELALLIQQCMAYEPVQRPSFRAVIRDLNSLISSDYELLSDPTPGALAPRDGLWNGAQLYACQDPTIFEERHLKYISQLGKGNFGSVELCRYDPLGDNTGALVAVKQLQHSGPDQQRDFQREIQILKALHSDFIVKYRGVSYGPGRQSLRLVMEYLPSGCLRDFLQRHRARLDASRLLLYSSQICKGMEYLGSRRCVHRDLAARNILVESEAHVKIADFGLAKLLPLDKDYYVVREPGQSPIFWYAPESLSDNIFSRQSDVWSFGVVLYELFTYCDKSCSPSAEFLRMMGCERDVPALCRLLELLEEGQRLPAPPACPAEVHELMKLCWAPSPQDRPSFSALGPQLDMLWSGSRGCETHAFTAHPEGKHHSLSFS
Sequence of UniProt Q96PY6 (whole entry, looked up): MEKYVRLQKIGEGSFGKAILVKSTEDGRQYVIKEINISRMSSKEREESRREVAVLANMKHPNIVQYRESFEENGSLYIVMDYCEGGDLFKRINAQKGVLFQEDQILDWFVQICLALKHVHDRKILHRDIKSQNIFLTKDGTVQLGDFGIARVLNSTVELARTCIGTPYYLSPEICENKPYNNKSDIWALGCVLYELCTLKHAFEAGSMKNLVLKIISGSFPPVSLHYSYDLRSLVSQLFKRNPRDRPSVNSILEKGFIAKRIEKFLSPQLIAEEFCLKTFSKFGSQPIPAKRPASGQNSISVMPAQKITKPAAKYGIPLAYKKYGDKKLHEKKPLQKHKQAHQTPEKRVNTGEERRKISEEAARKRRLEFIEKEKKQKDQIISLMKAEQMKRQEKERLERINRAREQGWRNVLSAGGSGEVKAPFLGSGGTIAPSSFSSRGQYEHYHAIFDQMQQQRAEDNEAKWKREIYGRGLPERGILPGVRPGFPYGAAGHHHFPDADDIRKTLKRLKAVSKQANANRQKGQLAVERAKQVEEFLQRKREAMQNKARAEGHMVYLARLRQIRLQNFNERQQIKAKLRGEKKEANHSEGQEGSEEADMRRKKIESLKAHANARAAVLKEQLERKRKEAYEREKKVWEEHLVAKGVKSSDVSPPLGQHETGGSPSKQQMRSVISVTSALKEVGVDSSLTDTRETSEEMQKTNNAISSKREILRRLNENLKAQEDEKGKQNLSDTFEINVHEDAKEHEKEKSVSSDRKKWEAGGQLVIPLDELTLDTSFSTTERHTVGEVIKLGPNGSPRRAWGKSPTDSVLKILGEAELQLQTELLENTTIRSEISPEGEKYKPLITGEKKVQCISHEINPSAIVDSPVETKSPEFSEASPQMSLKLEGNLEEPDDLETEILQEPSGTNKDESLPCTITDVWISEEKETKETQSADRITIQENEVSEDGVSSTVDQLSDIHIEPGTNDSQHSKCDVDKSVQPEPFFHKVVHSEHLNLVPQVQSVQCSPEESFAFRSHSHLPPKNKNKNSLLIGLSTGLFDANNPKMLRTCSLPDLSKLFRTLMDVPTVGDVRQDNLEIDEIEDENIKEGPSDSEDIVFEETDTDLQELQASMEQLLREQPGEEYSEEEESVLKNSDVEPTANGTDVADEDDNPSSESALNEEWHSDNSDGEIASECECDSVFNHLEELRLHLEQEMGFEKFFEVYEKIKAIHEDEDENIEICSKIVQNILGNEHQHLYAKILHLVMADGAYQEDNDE
Sequence of UniProt P53350 (whole entry, looked up): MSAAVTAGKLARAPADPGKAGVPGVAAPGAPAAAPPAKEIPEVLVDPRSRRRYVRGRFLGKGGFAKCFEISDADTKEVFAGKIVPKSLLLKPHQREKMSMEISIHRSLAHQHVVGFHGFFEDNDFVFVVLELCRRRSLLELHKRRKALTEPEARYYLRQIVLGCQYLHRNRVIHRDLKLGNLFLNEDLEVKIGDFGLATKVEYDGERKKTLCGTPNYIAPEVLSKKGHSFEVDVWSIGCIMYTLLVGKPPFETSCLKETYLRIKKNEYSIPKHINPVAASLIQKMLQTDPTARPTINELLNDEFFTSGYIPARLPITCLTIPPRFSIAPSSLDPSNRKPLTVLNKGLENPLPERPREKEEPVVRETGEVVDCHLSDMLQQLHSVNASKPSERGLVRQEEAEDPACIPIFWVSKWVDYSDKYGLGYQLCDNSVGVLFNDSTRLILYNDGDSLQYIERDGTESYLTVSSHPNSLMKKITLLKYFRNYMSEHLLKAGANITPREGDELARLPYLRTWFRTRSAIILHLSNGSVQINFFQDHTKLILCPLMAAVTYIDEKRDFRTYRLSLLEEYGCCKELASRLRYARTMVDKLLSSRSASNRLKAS
Sequence of UniProt P36507 (whole entry, looked up): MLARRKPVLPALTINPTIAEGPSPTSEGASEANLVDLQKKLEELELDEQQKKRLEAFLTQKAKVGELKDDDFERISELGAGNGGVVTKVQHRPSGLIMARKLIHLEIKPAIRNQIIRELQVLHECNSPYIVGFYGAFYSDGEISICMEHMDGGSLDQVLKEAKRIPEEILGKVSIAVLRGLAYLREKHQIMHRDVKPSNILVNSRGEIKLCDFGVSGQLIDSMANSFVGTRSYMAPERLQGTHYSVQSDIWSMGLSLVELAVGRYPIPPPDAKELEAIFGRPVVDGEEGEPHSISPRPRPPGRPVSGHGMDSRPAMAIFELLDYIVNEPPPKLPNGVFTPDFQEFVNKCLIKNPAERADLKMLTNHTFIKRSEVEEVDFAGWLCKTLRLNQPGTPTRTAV
Sequence of UniProt Q9HC98 (whole entry, looked up): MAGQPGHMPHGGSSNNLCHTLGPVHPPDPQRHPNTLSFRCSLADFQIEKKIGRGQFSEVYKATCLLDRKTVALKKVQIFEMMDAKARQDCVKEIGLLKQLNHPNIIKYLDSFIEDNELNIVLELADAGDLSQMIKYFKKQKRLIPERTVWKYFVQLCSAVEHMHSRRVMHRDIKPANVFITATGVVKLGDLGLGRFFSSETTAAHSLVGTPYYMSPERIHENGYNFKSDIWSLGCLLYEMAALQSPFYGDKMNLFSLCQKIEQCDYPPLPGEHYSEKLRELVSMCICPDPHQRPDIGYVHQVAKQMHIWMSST

Block 1 — effect on: cell-free assay; technique: competition with immobilised ligand; concentration: 0.1 µM
SMILES: Nc1c(C(=O)NCc2ccc(C(=O)NCCCC3CCCCC3)cc2)cnn1-c1ccccc1
target	remaining binding
EPHB2 (Homo sapiens, UniProt P29323)	100%
MAP3K5 (Homo sapiens, UniProt Q99683)	81%
PLK1 (Homo sapiens, UniProt P53350)	100%
CSNK1G1 (Homo sapiens, UniProt Q9HCP0)	100%
FLT3 (Homo sapiens, UniProt P36888, D835Y)	100%

Block 2 — cell line: mouse MPNST tumor cells; technique: high-content nuclear imaging; item: cell number; concentration: 10 µM; time: 12 h; setting: mean of 2 replicates; reference: plate mean; reading: higher = more cells
Compound	nuclei count
Cc1ccc(S(=O)(=O)N[C@@H](CCN)C(=O)N[C@@H](Cc2ccccc2)C(N)=O)c2ccccc12	0.447 z-score
c1ccc2c(c1)CCC[C@H]2Nc1nc2ccccc2[nH]1	2.37 z-score
CN1CCC(Nc2ncc3ncnc(Nc4ccc(F)c(Cl)c4)c3n2)CC1	0.882 z-score
CC(C)[C@H](CO)Nc1nc(Nc2ccc(C(=O)O)c(Cl)c2)c2ncn(C(C)C)c2n1	0.131 z-score
Cc1nc(=O)c2cc(CN(C)c3ccc(C(=O)N[C@@H](CCC(=O)O)C(=O)O)s3)ccc2[nH]1	-2.64 z-score

Block 3 — species: mouse; matrix: microsomes or S9; concentration: 2 µM; time: 0.5 h
SMILES	remaining compound
Cn1nccc1C1CN(Cc2noc3c2CC(C)(C)CC3)CCO1 (stereo not drawn)	0.0676%
CC1Nc2ncnc(NC(C)c3cc4ccccc4nc3-c3ccccc3)c2NC1=O (stereo not drawn)	0.307%
COc1cccc(CN(c2nc3nc(C)c(Cl)c(C)n3n2)S(=O)(=O)c2ccc(Cl)cc2)c1	1.72%
COCCN(CC1CCCN(C2Cc3ccccc3C2)C1)C(=O)Cc1c[nH]c2ccccc12 (stereo not drawn)	1.78%
Fc1ccc(Nc2cnnc3c(Cl)cccc23)cc1	4.47%

Block 4 — SMILES: O=S(=O)(c1cccc2cnccc12)N1CCCNCC1; effect on: enzyme activity; action: inhibitor; concentration: 0.5 µM; reference: control
target	remaining activity
MAP2K2 (Homo sapiens, UniProt P36507)	117%
MERTK (Homo sapiens, UniProt Q12866)	88.3%
RPS6KA2 (Homo sapiens, UniProt Q15349)	79.9%
MST1R (Homo sapiens, UniProt Q04912)	92.7%
TAOK2 (Homo sapiens, UniProt Q9UL54)	87.3%
EPHA3 (Homo sapiens, UniProt P29320)	105%
NEK6 (Homo sapiens, UniProt Q9HC98)	97.6%
FRK (Homo sapiens, UniProt P42685)	78.1%
NEK1 (Homo sapiens, UniProt Q96PY6)	90.3%
WEE1 (Homo sapiens, UniProt P30291)	99.9%
JAK3 (Homo sapiens, UniProt P52333)	120%
MAP3K5 (Homo sapiens, UniProt Q99683)	88.7%

Repeated from above (block 3):
SMILES	remaining compound
CC1Nc2ncnc(NC(C)c3cc4ccccc4nc3-c3ccccc3)c2NC1=O (stereo not drawn)	0.307%
COc1cccc(CN(c2nc3nc(C)c(Cl)c(C)n3n2)S(=O)(=O)c2ccc(Cl)cc2)c1	1.72%
COCCN(CC1CCCN(C2Cc3ccccc3C2)C1)C(=O)Cc1c[nH]c2ccccc12 (stereo not drawn)	1.78%
Fc1ccc(Nc2cnnc3c(Cl)cccc23)cc1	4.47%
